{"data": "Measurements collected from several papers", "note": "Lines come from different studies, so protocols differ. Numbers after ± are the reported error."}
{"SMILES": "CC[C@H](C)[C@H](NC(=O)[C@@H](NC(=O)[C@H](CC(=O)O)NC(C)=O)[C@@H](C)O)C(=O)N[C@@H](CCCNC(=N)N)C(=O)N[C@@H](CC(C)C)C(=O)N[C@@H](CC(C)C)C(=O)N[C@@H](Cc1ccccc1)C(=O)N[C@@H](CCC(N)=O)C(=O)N[C@@H](CC(C)C)C(=O)N[C@@H](CCSC)C(=O)N[C@@H](CCCNC(=N)N)C(=O)N1CCC[C@H]1C(=O)N1CCC[C@H]1C(=O)N[C@@H](CC(N)=O)C(=O)N[C@@H](CCSC)C(=O)N[C@H](C(=O)N1CCC[C@H]1C(=O)N[C@@H](C)C(=O)N[C@H](C(=O)N[C@@H](CC(N)=O)C(=O)N[C@@H](C)C(N)=O)C(C)C)[C@@H](C)O", "test": "measured: HA-51 tetramer", "test system": "antigen-experienced tetramer+ CD4 T cells, healthy adults, HLA-DRB1*0101", "setting": "dose not given", "measurement": "α4β7+ CCR9+ cells", "value": "23.5%"}
{"SMILES": "CSCC[C@H](NC(=O)[C@H](CCCNC(=N)N)NC(=O)[C@H](CCCNC(=N)N)NC(=O)[C@H](CCCCN)NC(=O)[C@H](C)NC(=O)[C@H](CCCNC(=N)N)NC(=O)CNC(=O)[C@@H](NC(=O)CN1CCN(CC(=O)O)CCN(CC(=O)O)CCN(CC(=O)O)CC1)[C@@H](C)O)C(=O)N[C@@H](CCC(N)=O)C(=O)N[C@@H](Cc1ccc(O)cc1)C(=O)N[C@@H](CC(N)=O)C(=O)N[C@@H](CCCNC(=N)N)C(=O)N[C@@H](CCCNC(=N)N)C(=O)O [gallium-68 labelled]", "test system": "rat, S. aureus infection", "setting": "iv, 20 min", "measurement": "target to background ratio", "value": 1.6}
{"SMILES": "COc1ccc(C2=Nn3c(N/N=C4/C(=O)N(C)c5ccccc54)nnc3SC2)cc1", "test": "angiogenesis", "test system": "hen egg chorioallantoic membrane", "setting": "40 µM", "how to read": "baseline: DMSO vehicle", "measurement": "number of blood vessels", "value": "decreased"}
{"SMILES": "CC(COC(=O)c1ccccc1)OC(=O)C(N)C(C)C (mixture of isomers)", "test system": "Caco-2 cell homogenate", "setting": "prodrug to BA-PG step", "measurement": "hydrolysis rate constant", "value": "0.021 min⁻¹"}
{"SMILES": "CN(C)CCN(Cc1ccccc1)C(=O)c1cc(-c2ccc(F)cc2)n2nc(C(C)(C)C)cc2n1", "test": "measured: CD11b", "test system": "Tg6799 mouse, cortex", "setting": "dose not given, four months", "measurement": "microgliosis", "value": "decreased"}
{"SMILES": "N[C@@H](Cc1ccc(O)cc1)C(=O)N1CCC[C@H]1C(=O)NCC(=O)NCC(=O)O", "test": "diketopiperazine formation, Arrhenius plot, ESI-MS", "test system": "1-propanol", "setting": "70, 80, 90 °C, 0.5% acetic acid", "measurement": "ΔG‡ at 298.15 K", "value": "23.2 ± 3.59 kcal/mol"}
{"SMILES": "O=c1c(O)c(-c2cc(O)ccc2O)oc2cc(O)cc(O)c12", "test": "DPPH radical scavenging", "setting": "250 µg/mL", "measurement": "inhibition", "value": "69.5 ± 1.11%"}
{"SMILES": "CCOC(=O)Nc1ccc2c(c1)CN1C(=S)N(c3ccc(C#N)c(C(F)(F)F)c3)C(=O)C1C2 (centres unmarked)", "test system": "mouse, 22Rv1 orthotopic xenograft", "setting": "intravenous, 25 mg/kg/day", "how to read": "baseline: vehicle", "measurement": "decrease in Ki-67 proliferative index", "value": "30.8%"}
{"SMILES": "N#Cc1cnc2cc(OCC3CCNCC3)c(F)cc2c1Nc1cc(F)c(OCc2cccc(Cl)n2)cc1Cl", "test system": "C57BL/6J mice, diet-induced MASH, partial hepatectomy", "setting": "dose not given, 72 h after hepatectomy", "measurement": "survival", "value": "56.2%"}
{"SMILES": "Cc1cc(Nc2nc(C[C@@]3(C(=O)O)CCN(Cc4cccc(Cl)c4F)[C@H](C)C3)cc(C)c2F)[nH]n1", "test system": "mice, NCI-H69 xenograft", "setting": "oral, 5 mg/kg once daily", "measurement": "tumour growth inhibition", "value": "79%"}
{"SMILES": "O=C(O)/C=C/c1cc(O)cc(O)c1", "test": "DPPH radical scavenging", "setting": "62.5 µg/mL", "measurement": "inhibition", "value": "49.7 ± 2.31%"}
{"SMILES": "CC[C@H](C)[C@H](NC(=O)[C@H](Cc1c[nH]c2ccccc12)NC(=O)[C@H](CCCNC(=N)N)NC(=O)[C@H](CCCCN)NC(=O)[C@H](CC(C)C)NC(=O)[C@H](CC(=O)O)NC(=O)[C@H](Cc1ccccc1)NC(=O)[C@H](C)NC(=O)[C@H](Cc1ccc(O)cc1)NC(=O)[C@H](CC(N)=O)NC(=O)[C@H](Cc1ccc(O)cc1)NC(=O)[C@H](CCCNC(=N)N)NC(=O)[C@H](Cc1ccc(O)cc1)NC(=O)[C@H](Cc1ccc(O)cc1)NC(=O)[C@@H](NC(=O)[C@H](CC(C)C)NC(=O)[C@H](C)NC(=O)[C@H](CC(N)=O)NC(=O)[C@H](Cc1ccc(O)cc1)NC(C)=O)[C@@H](C)CC)C(=O)N[C@@H](Cc1ccc(O)cc1)C(=O)N[C@@H](CC(C)C)C(N)=O", "test": "measured: HA-15 tetramer", "test system": "antigen-experienced tetramer+ CD4 T cells, healthy adults, HLA-DRB1*0101", "setting": "dose not given", "measurement": "α4β7+ CCR9− cells", "value": "50%"}
{"SMILES": "CC(C)C[C@H]1NC(=O)[C@H](NC(=O)CN)CSSC[C@H]2NC(=O)[C@H]3CSSC[C@H](C(=O)N[C@H](CC(N)=O)C(=O)N[C@H](Cc4ccccc4)C(=O)N[C@H](CO)C(=O)N[C@H](Cc4ccccc4)C(N)=O)NC(=O)[C@@H](CC(C)C)NC(=O)[C@@H](CCCCN)NC(=O)[C@@H](Cc4ccccc4)NC(=O)[C@@H](CC(C)C)NC(=O)[C@@H](CCCCN)NC(=O)[C@@H](CO)NC(=O)[C@@H](CSSC[C@@H](NC(=O)[C@@H](CCCCN)NC(=O)[C@@H](Cc4c[nH]c5ccccc45)NC(=O)[C@@H](Cc4c[nH]c5ccccc45)NC(=O)[C@@H](Cc4ccccc4)NC(=O)[C@@H](CCC(=O)O)NC1=O)C(=O)N[C@H](CC(N)=O)C(=O)N1CCC[C@@H]1C(=O)N[C@H](CC(N)=O)C(=O)N[C@H](CC(=O)O)C(=O)N[C@H](CC(=O)O)C(=O)N[C@H](CCCCN)C(=O)N3)NC(=O)[C@@H](CCCCN)NC(=O)[C@@H](CC(C)C)NC(=O)[C@@H](CCCCN)NC(=O)[C@H]1CCCN1C(=O)[C@@H](CCCNC(=N)N)NC2=O", "test system": "D2.mdx mouse", "setting": "subcutaneous, 10 mg/kg, six weeks, 20 eccentric contractions", "measurement": "protection from contraction injury", "value": "~43%"}
{"SMILES": "CC(C)C[C@@H]1NC(=O)[C@H](C(C)C)NC(=O)[C@H](CO)NC(=O)CNC(=O)CNC(=O)[C@H](CCCNC(=N)N)NC(=O)[C@@H]2CCCN2C(=O)[C@@H](NC(=O)CC[C@H](NC(=O)c2ccc(N(C)Cc3cnc4nc(N)nc(N)c4n3)cc2)C(=O)O)C(C)(C)SSC[C@@H](C(=O)O)NC(=O)CNC(=O)[C@H]([C@@H](C)O)NC(=O)[C@H](C(C)C)NC1=O", "test system": "rat adjuvant arthritis", "setting": "iv, 5 mg/kg once daily day 0-14, day 14", "measurement": "paw weight", "value": "2.27 ± 0.223 g"}
{"SMILES": "CC[C@H](C)[C@@H]1NC(=O)[C@@H](N)CSSC[C@@H]2NC(=O)[C@@H]3CSSC[C@@H]4NC(=O)[C@H](Cc5ccccc5)NC(=O)CNC(=O)[C@H](C(C)C)NC(=O)[C@H](CC(C)C)NC(=O)[C@H](CSSC[C@H](NC(=O)[C@H](Cc5c[nH]c6ccccc56)NC(=O)CNC(=O)CNC(=O)[C@H](CO)NC(=O)[C@H](CO)NC1=O)C(=O)NCC(=O)N[C@@H](Cc1ccccc1)C(=O)N[C@@H](CC(=O)O)C(=O)N[C@@H](CC(C)C)C(=O)N[C@@H](Cc1c[nH]cn1)C(=O)NCC(=O)N3)NC(=O)CNC(=O)[C@H](CSSC[C@@H](C(=O)O)NC(=O)CNC(=O)[C@H]([C@@H](C)O)NC(=O)CNC(=O)[C@H](Cc1ccc(O)cc1)NC4=O)NC(=O)[C@H](CC(N)=O)NC(=O)CNC2=O", "test": "whole-cell voltage clamp", "test system": "rat hippocampal neurons", "setting": "up to 5 µM", "measurement": "potassium current", "value": "no effect"}
{"SMILES": "CC[C@H](C)[C@H](NC(=O)[C@@H]1CCCN1C(=O)[C@@H]1CCCN1C(=O)[C@@H]1CCCN1C(=O)[C@H](C)NC(=O)[C@@H]1CCCN1C(=O)[C@H](CCCNC(=N)N)NC(=O)[C@H](CC(C)C)NC(=O)[C@H](CO)NC(=O)[C@@H]1CCCN1C(=O)[C@H](C)NC(=O)[C@H](CCC(=O)O)NC(=O)[C@H](CCC(=O)O)NC(=O)[C@H](CCCNC(=N)N)NC(=O)[C@H](CCCCN)NC(=O)[C@H](CCCCN)NC(=O)[C@H](CC(=O)O)NC(=O)[C@H](CC(C)C)NC(=O)[C@@H]1CCCN1C(=O)[C@H](CCCNC(=N)N)NC(=O)[C@H](Cc1c[nH]cn1)NC(=O)CN)C(=O)N[C@@H](CO)C(=O)NCC(=O)NCC(=O)NCC(=O)N[C@@H](Cc1ccc(O)cc1)C(=O)N[C@@H](CCCNC(=N)N)C(=O)O", "test": "neutrophil infiltration", "test system": "C57BL/6J mice, wild-type, thioglycollate peritonitis, peritoneum", "setting": "i.v., 80 µM, 4 h, with: thioglycollate i.p.", "how to read": "baseline: vehicle", "measurement": "inhibition", "value": "~30%"}
{"SMILES": "CCOP(=O)(OCC)OCCCCOC(=O)CC1=C(C)/C(=C/c2ccc([S+](C)[O-])cc2)c2ccc(F)cc21 (centres unmarked)", "test": "bone resorption", "test system": "rat, Freund's adjuvant arthritis", "setting": "oral, 50 mg/kg once daily, prevention protocol", "measurement": "inhibition", "value": "40%"}
{"note": "A few entries again:"}
{"SMILES": "CSCC[C@H](NC(=O)[C@H](CCCNC(=N)N)NC(=O)[C@H](CCCNC(=N)N)NC(=O)[C@H](CCCCN)NC(=O)[C@H](C)NC(=O)[C@H](CCCNC(=N)N)NC(=O)CNC(=O)[C@@H](NC(=O)CN1CCN(CC(=O)O)CCN(CC(=O)O)CCN(CC(=O)O)CC1)[C@@H](C)O)C(=O)N[C@@H](CCC(N)=O)C(=O)N[C@@H](Cc1ccc(O)cc1)C(=O)N[C@@H](CC(N)=O)C(=O)N[C@@H](CCCNC(=N)N)C(=O)N[C@@H](CCCNC(=N)N)C(=O)O [gallium-68 labelled]", "test system": "rat, S. aureus infection", "setting": "iv, 20 min", "measurement": "target to background ratio", "value": 1.6}
{"SMILES": "CC(C)C[C@H]1NC(=O)[C@H](NC(=O)CN)CSSC[C@H]2NC(=O)[C@H]3CSSC[C@H](C(=O)N[C@H](CC(N)=O)C(=O)N[C@H](Cc4ccccc4)C(=O)N[C@H](CO)C(=O)N[C@H](Cc4ccccc4)C(N)=O)NC(=O)[C@@H](CC(C)C)NC(=O)[C@@H](CCCCN)NC(=O)[C@@H](Cc4ccccc4)NC(=O)[C@@H](CC(C)C)NC(=O)[C@@H](CCCCN)NC(=O)[C@@H](CO)NC(=O)[C@@H](CSSC[C@@H](NC(=O)[C@@H](CCCCN)NC(=O)[C@@H](Cc4c[nH]c5ccccc45)NC(=O)[C@@H](Cc4c[nH]c5ccccc45)NC(=O)[C@@H](Cc4ccccc4)NC(=O)[C@@H](CCC(=O)O)NC1=O)C(=O)N[C@H](CC(N)=O)C(=O)N1CCC[C@@H]1C(=O)N[C@H](CC(N)=O)C(=O)N[C@H](CC(=O)O)C(=O)N[C@H](CC(=O)O)C(=O)N[C@H](CCCCN)C(=O)N3)NC(=O)[C@@H](CCCCN)NC(=O)[C@@H](CC(C)C)NC(=O)[C@@H](CCCCN)NC(=O)[C@H]1CCCN1C(=O)[C@@H](CCCNC(=N)N)NC2=O", "test system": "D2.mdx mouse", "setting": "subcutaneous, 10 mg/kg, six weeks, 20 eccentric contractions", "measurement": "protection from contraction injury", "value": "~43%"}
